Results from different studies.
Compare with care: the assays were run in different laboratories. Several values in a cell are separate wells, animals, samples, runs or records. ± marks the error that the study gave.

O=CCNCCOn1c(=O)n(OCCNCCO)c(=O)n(OCCNCCOn2c(=O)n(OCCNCCO)c(=O)n(OCCNCCO)c2=O)c1=O
inhibition (DPPH scavenging; 31.25 µg/mL): 15%

COC1OC(C)C(OS(=O)(=O)O)C(OC2OC(C)C(OS(=O)(=O)O)C(OC3OC(C)C(OS(=O)(=O)O)C(OC4OC(C)C(OS(=O)(=O)O)C(OS(=O)(=O)O)C4O)C3O)C2O)C1O (stereo not shown)
thrombin time (human plasma; 128 µg/mL): 9.2 s

COc1cnc2cccc(N3CCc4c(cc(Cn5ccnc5)cc4-c4cn(C)nc4C(F)(F)F)C3=O)c2c1
tumour volume (BALB/c nude mice, MV4-11 xenograft; intraperitoneal, 100 mg/kg, day 14): 180 mm3 and 162 mm3 and 193 mm3 and 210 mm3 and 125 mm3

COc1ccc(C(=O)CCc2cc(C(CCc3ccc(O)cc3OC)c3ccc(O)cc3)c(O)cc2OC)cc1 (racemic)
5-HETE level (human blood; 1 µM, together with: A23187): 4880 ± 2030 pg/mL

O=C(N[C@@H](Cc1coc2ccccc12)B(O)O)[C@@H]1C[C@H]2CC[C@@H]1O2
T/C (tumour growth; U266B1, mouse, U266B1 multiple myeloma xenograft; oral, 1 mg/kg every 2 days, 48 h): -82%

CC(C)C[C@H](NC(=O)CNC(=O)[C@H](CCC(N)=O)NC(=O)[C@H](CC(C)C)NC(=O)[C@H](CC(C)C)NC(=O)[C@H](CCCNC(=N)N)NC(=O)[C@H](CCC(N)=O)NC(=O)[C@H](CC(C)C)NC(=O)[C@H](CCCNC(=N)N)NC(=O)[C@H](C)NC(=O)CNC(=O)[C@H](CCC(=O)O)NC(=O)[C@H](CCCNC(=N)N)NC(=O)[C@H](CC(C)C)NC(=O)[C@H](CCCNC(=N)N)NC(=O)[C@H](CO)NC(=O)[C@H](CC(C)C)NC(=O)[C@H](CCC(=O)O)NC(=O)[C@H](CO)NC(=O)[C@@H](NC(=O)[C@H](Cc1ccccc1)NC(=O)[C@@H](NC(=O)CNC(=O)[C@H](CC(=O)O)NC(=O)C(C)(C)NC(=O)[C@@H](N)Cc1c[nH]cn1)[C@@H](C)O)[C@@H](C)O)C(=O)N[C@@H](CC(C)C)C(=O)N[C@@H](CCC(N)=O)C(=O)NCC(=O)N[C@@H](CC(C)C)C(=O)N[C@H](C(=O)NCC(=O)N[C@@H](CCCCNC(=O)COCCOCCNC(=O)COCCOCCNC(=O)CC[C@H](NC(=O)CCCCCCCCCCCCCCCCC(=O)O)C(=O)O)C(N)=O)C(C)C
dark-phase energy expenditure (DIO C57BL/6J mice; sc, 300 nmol/kg twice daily, 8 days): increased

CC[C@H](C)[C@H](NC(=O)[C@H](Cc1ccc(O)cc1)NC(=O)[C@H](CCC(=O)O)NC(=O)CNC(=O)[C@H](CCC(=O)O)NC(=O)[C@H](CCCCN)NC(=O)[C@H](CCCCN)NC(=O)[C@H](CC(=O)O)NC(=O)[C@H](Cc1c[nH]cn1)NC(=O)[C@H](Cc1c[nH]cn1)NC(=O)[C@H](Cc1c[nH]cn1)NC(=O)[C@H](Cc1c[nH]cn1)NC(=O)[C@H](Cc1c[nH]cn1)NC(=O)[C@H](Cc1c[nH]cn1)NC(=O)[C@H](Cc1c[nH]cn1)NC(=O)[C@H](Cc1c[nH]cn1)NC(=O)[C@H](Cc1c[nH]cn1)NC(=O)[C@@H](N)Cc1c[nH]cn1)C(=O)N[C@@H](CCCCN)C(=O)N[C@@H](CC(C)C)C(=O)N[C@@H](CCCCN)C(=O)N[C@H](C(=O)N[C@H](C(=O)NCC(=O)N[C@@H](CCC(N)=O)C(=O)N[C@@H](CC(=O)O)C(=O)N[C@@H](CO)C(=O)N[C@@H](CO)C(=O)N[C@@H](CCC(=O)O)C(=O)N[C@H](C(=O)N[C@@H](Cc1c[nH]cn1)C(=O)N[C@@H](Cc1ccccc1)C(=O)N[C@@H](CCCCN)C(=O)N[C@H](C(=O)N[C@@H](CCCCN)C(=O)N[C@@H](CCSC)C(=O)N[C@H](C(=O)N[C@H](C(=O)N[C@@H](Cc1c[nH]cn1)C(=O)N[C@@H](CC(C)C)C(=O)N[C@@H](CCCCN)C(=O)N[C@@H](CCCCN)C(=O)N[C@@H](CC(C)C)C(=O)N[C@@H](CCCCN)C(=O)N[C@@H](CCC(=O)O)C(=O)N[C@@H](CO)C(=O)N[C@@H](Cc1ccc(O)cc1)C(=O)N[C@@H](CS)C(=O)N[C@@H](CCC(N)=O)C(=O)N[C@@H](CCCNC(=N)N)C(=O)N[C@@H](CCC(N)=O)C(=O)O)[C@@H](C)O)[C@@H](C)O)C(C)C)[C@@H](C)CC)[C@@H](C)CC)C(C)C
climbing mean difference (Drosophila α-synuclein A53T transgenic; 60 µM, 1 day post eclosion, unit not given; reference: untreated): 0

COc1cc2c(NC3CCN(C(C)C)CC3)cc(N3CCOCC3)nc2cc1OCCCN1CCCC1
normalised protein abundance (TMT quantitative proteomics, measured: LDHB; 5xFAD mice, hippocampus; dose not given): 0.00155 and -0.0227 and -0.00398 and -0.0291 and -0.0449 and -0.0434 and 0.00999 and 0.00874

COC1OC(C)C(OC2OC(C)C(O)C(OC3OC(C)C(O)C(OS(=O)(=O)O)C3OS(=O)(=O)O)C2OS(=O)(=O)O)C(OS(=O)(=O)O)C1OS(=O)(=O)O (stereo not shown)
thrombin time prolongation (human plasma; 128 µg/mL; reference: control): 1 fold

Cc1cn(-c2cc(NC(=O)c3cc(C#Cc4cnc5c(Nc6cnn(C)c6)cccn45)c(C)cc3F)cc(C(C)(C)C#N)c2)cn1
aggregation (platelet aggregation; platelet-rich plasma; 0.1 µM, DMSO 100, together with: collagen 2 mg/mL): 75.9%

COC1OC(C)C(OC2OC(C)C(OS(=O)(=O)O)C(OC3OC(C)C(OC4OC(C)C(OS(=O)(=O)O)C(OC5OC(C)C(OC6OC(C)C(OS(=O)(=O)O)C(OC7OC(C)C(OC8OC(C)C(OS(=O)(=O)O)C(OS(=O)(=O)O)C8O)C(OS(=O)(=O)O)C7O)C6O)C(OS(=O)(=O)O)C5O)C4O)C(OS(=O)(=O)O)C3O)C2O)C(OS(=O)(=O)O)C1O (stereo not shown)
thrombin time prolongation (human plasma; 128 µg/mL; reference: control): 1 fold

COC1CN([C@H]2CC[C@H]([C@@]3(C)Oc4c(Cl)cc(C(=O)NCc5c(SC)cc(C)[nH]c5=O)c(C)c4O3)CC2)C1
log2 fold change (RNA-seq, measured: FBXO2 mouse homolog; mouse, HT-1376 xenograft, whole blood; dose not given; reference: vehicle): 2.65

COC1OC(C)C(OC2OC(C)C(O)C(OC3OC(C)C(OC4OC(C)C(O)C(OC5OC(C)C(OC6OC(C)C(O)C(OC7OC(C)C(O)C(OS(=O)(=O)O)C7OS(=O)(=O)O)C6OS(=O)(=O)O)C(OS(=O)(=O)O)C5OS(=O)(=O)O)C4OS(=O)(=O)O)C(OS(=O)(=O)O)C3OS(=O)(=O)O)C2OS(=O)(=O)O)C(OS(=O)(=O)O)C1OS(=O)(=O)O (stereo not shown)
thrombin time (human plasma; 128 µg/mL): 11.1 ± 0.8 s

COc1cc(O)ccc1CCC(c1ccc(O)cc1)c1cc2c(c(C)c1O)OC(c1ccc(O)cc1)CC2 (mixture of isomers)
5-HETE level (human blood; 10 µM, together with: A23187): 1180 ± 484 pg/mL

Cc1ccc(N(O)/N=N/c2ccc(S(=O)(=O)Nc3nccs3)cc2)cc1
inhibition (DPPH scavenging, absorbance; 60 µg/mL): 26.5%

COC1OC(C)C(OS(=O)(=O)O)C(OC2OC(C)C(OS(=O)(=O)O)C(OC3OC(C)C(OS(=O)(=O)O)C(OC4OC(C)C(OS(=O)(=O)O)C(OC5OC(C)C(OS(=O)(=O)O)C(OC6OC(C)C(OS(=O)(=O)O)C(OC7OC(C)C(OS(=O)(=O)O)C(OC8OC(C)C(OS(=O)(=O)O)C(OC9OC(C)C(OS(=O)(=O)O)C(OC%10OC(C)C(OS(=O)(=O)O)C(OS(=O)(=O)O)C%10O)C9O)C8O)C7O)C6O)C5O)C4O)C3O)C2O)C1O (stereo not shown)
thrombin time (human plasma; 128 µg/mL): 9.2 s

Excerpt of the above:
COC1OC(C)C(OC2OC(C)C(O)C(OC3OC(C)C(OC4OC(C)C(O)C(OC5OC(C)C(OC6OC(C)C(O)C(OC7OC(C)C(O)C(OS(=O)(=O)O)C7OS(=O)(=O)O)C6OS(=O)(=O)O)C(OS(=O)(=O)O)C5OS(=O)(=O)O)C4OS(=O)(=O)O)C(OS(=O)(=O)O)C3OS(=O)(=O)O)C2OS(=O)(=O)O)C(OS(=O)(=O)O)C1OS(=O)(=O)O (stereo not shown)
thrombin time (human plasma; 128 µg/mL): 11.1 ± 0.8 s

COc1cc(O)ccc1CCC(c1ccc(O)cc1)c1cc2c(c(C)c1O)OC(c1ccc(O)cc1)CC2 (mixture of isomers)
5-HETE level (human blood; 10 µM, together with: A23187): 1180 ± 484 pg/mL
